Measured values pooled from the literature.
Each numbered part is a random draw from the data of one study; scales do not carry over between parts. Substitutions count along the parent as printed.

Series 1 — target: CCNF, cyclin fold, Cln2 fusion (human); method: yeast growth competition, sequencing; matrix: yeast; setting: strong parent motif; reference: not given; reading: higher = stronger binding
Starting sequence: CDKN1A docking peptide (human); SKACRRLFGPVDS
Variant | normalised enrichment score
A3F | 3.86
R5K | 4.07
C4K | 7.09
F8M | 0.902
F8K | 0.319
F8R | 0.433
L7F | 1.14
G9W | 8.35
C4H | 4.15
A3K | 2.06
F8T | -0.14
V11M | 7.5
A3Y | 4.11
C4F | 2
F8E | 0.26
R6D | 3.4
A3E | 4.41
F8I | 1.03
R5W | 0.649
R6E | 5.73
A3W | 3.01
R5A L7A | 0.644
D12Q | 7.04
F8W | 3.68
G9P | 8.1

Series 2 — method: universal PBM; form: double-stranded DNA, one strand shown; matrix: in vitro; tested at: not given; reading: higher = stronger binding
Target: Sal-like protein 4, full length isoform B (SALL4, Homo sapiens, UniProt Q9UJQ4-2, residues 1-616)
Setting: 8-mer, flanks averaged, mean of replicates
Target sequence (chain): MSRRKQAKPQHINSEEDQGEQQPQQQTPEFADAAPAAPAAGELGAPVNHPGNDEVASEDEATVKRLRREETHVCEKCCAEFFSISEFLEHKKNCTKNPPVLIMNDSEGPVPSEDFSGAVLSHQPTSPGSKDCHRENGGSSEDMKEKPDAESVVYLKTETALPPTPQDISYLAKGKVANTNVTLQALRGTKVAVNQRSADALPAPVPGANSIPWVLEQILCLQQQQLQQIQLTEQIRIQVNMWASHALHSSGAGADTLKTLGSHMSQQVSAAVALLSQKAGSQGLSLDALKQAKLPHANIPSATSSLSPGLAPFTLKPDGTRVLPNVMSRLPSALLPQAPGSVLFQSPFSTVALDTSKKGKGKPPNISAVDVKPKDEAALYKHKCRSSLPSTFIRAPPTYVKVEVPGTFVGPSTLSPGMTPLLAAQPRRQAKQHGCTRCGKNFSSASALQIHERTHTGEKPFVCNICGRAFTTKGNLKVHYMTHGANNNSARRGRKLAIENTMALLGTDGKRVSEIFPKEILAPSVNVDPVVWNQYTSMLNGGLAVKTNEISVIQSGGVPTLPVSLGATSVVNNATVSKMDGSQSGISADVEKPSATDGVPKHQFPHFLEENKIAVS
Sequence | E-score
AGGGGCCC | -0.374
ACAAAGTC | -0.0943
GCCGTGAC | -0.0557
ACTGTAAA | 0.257
AGTTGTAA | 0.0717
CCTCTCGA | -0.173
ATTCTGTA | 0.127
TAGTACAA | 0.189
AAAGTGGT | -0.0703
CACGACTG | -0.192
CAGTGGAA | -0.172
CCATGCAA | 0.144
AGATCCGG | -0.187
AGGAAGCG | -0.1
GCGATCCC | -0.281
GGAATTAA | 0.231
AACGTTGC | 0.0633
AAAGCGTT | 0.0805
ACCTTTCT | 0.0413
CTGATACC | 0.061
GCACATCC | 0.0225
GTCACGCA | -0.115
GAGGGGCA | -0.119
AAATTTAC | 0.32
TAGGGTCA | -0.119

Series 3 — method: competition protein-binding microarray; form: double-stranded DNA, one strand shown; matrix: in vitro; tested at: 2 µM; together with: Pho4 competitor, 0.05 µM; reading: higher = stronger binding; constant ends, left off below: … GTCTTGATTCGCTTGACGCTGCTG
Target: Centromere-binding protein 1, full length, His-tagged (CBF1, Saccharomyces cerevisiae, UniProt P17106, residues 1-351)
Sequence of UniProt P17106 (whole entry, looked up): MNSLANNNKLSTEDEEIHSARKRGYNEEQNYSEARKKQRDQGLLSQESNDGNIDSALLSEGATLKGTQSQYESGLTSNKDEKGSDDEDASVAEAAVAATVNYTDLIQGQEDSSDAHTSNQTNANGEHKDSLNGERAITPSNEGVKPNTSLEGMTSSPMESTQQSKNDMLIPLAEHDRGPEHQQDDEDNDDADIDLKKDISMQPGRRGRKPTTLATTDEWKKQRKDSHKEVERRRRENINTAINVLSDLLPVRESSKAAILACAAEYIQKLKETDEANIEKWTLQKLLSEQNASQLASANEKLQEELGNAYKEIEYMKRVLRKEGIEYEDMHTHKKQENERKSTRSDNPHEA
Setting: whole 60-bp probe, lowest competitor level
Sequence | fluorescence intensity [a.u.]
CGGGGTTAAGTTTGTCACGGCACTTGCTTGCAGCAG | 90.8
CTGTGGGAGAGCCAGTTCGTGCCAGCCGTTATTTCT | 71.5
TATAGCTCTTTAATGCACATGCAAATGCGGTGGCGC | 108
GTTTACTATTTATGCAACGTGGTAATAAGACTGTCT | 137
CTTTCCCGATCTTGTACCGTGGGTGTAGCACATTTG | 62.8
CATACCCAACCTTTTCACGTGACTTAAGATATTTGT | 6990
ACCAGACGAAATCGGCACGGCATTAGGAATTCGGTA | 67.7
CATACCCAACCTTTTCACGTGCGCTAAGATATTTGT | 934
CAAAGAACATCAAGGCTCGTGTTGGTTCTCTACCAG | 76.4
TAAACTTCGAATTCCTTCGTGCTTTACTAAGACAAA | 78.3
TGAGAAGAGAGGCCACACATGCTGTTGGGGTTCATG | 66.1
AAAGCGGTAATTTGCGTCGTGGGTGCAGATATCTAT | 73.2
CTAACGAAGGTTTGAGCGGTGGGTGACAAGCCAAGT | 55.1
TTGCAAAAAAAGAATGGCGTGGGTAGGGGCGATTAT | 66.6
TCTCTGGCCTCCCATCACGTTACTTTATTACCCGGA | 563
AACATTATGGAAGTCCATGTGAATAATTCACTCAAG | 107
CTTTCTCCCATTCCGCACGTGTCTGCACAAGGCTGG | 1290
TATATAGTAGATCAACTCGTGCTTTGCTGGCTATAA | 107
CAACAGCAGCAACATCACACGCAGAATTCACAACCA | 123

Series 4 — method: RNA Bind-n-Seq; form: RNA; matrix: in vitro; tested at: 200 nM; setting: whole 134-nt RNA, ends assumed; together with: 150 mM KCl; reference: input library; reading: higher = stronger binding
Target: Fragile X messenger ribonucleoprotein 1, C-terminal low-complexity region (Fmr1, Mus musculus, UniProt P35922)
Constant ends, left off below: GGGAGUUCUACAGUCCGACGAUC … UGGAAUUCUCGGGUGUCAAGG
Sequence | log2 enrichment
UCCUGUGCUACACAUCGUAUGUACCGAAUCGGGAAAAAAGGGAAAAAAGGGGAAAAAAGGAAAGUAUUAUGUUACGCCGUUCGGAUCUGC | -0.455
CCUCAAGUCCUGUGCUACACAUCGUAUGUACCGAAUCGGGCGGGGCGGCGGGAAAGUAUUAUGUUACGCCGUUCGGAUCUGCACUUCCAG | 0.654
CUCAAGUCCUGUGCUACACAUCGUAUGUACCGAAUCGGAAAGGAAAAAGGAGGAAAGUAUUAUGUUACGCCGUUCGGAUCUGCACUUCCA | -0.153
ACCAUGCAGGUGGGCAUCUUUGGGAAGUGGAAAAAGGGGGGGAUAGGGAGGGGGGUAACACUUUGGGAACAGGUGGUCCCAGGUCGUUUC | 0.675
CCUGUGCUACACAUCGUAUGUACCGAAUCGGUUUUUUUGGUUUUUUUGGUUUUUUUGGGGAAAGUAUUAUGUUACGCCGUUCGGAUCUGC | -0.809
GUCCUGUGCUACACAUCGUAUGUACCGAAUCGGGGCCCCCGGGCCCCCGGCCCCCGGGAAAGUAUUAUGUUACGCCGUUCGGAUCUGCAC | -0.368
UAUGAGGAUGAGUUGGUGCCCCUUUUUGAGAAGGCCGGACCCAUUUGGGAUCUACGUCUUAUGAUGGAUCCACUGUCCGGUCAGAAUAGA | -0.153
CCUCAAGUCCUGUGCUACACAUCGUAUGUACCGAAUCGGAAAAAGGUGGUGGAAAGUAUUAUGUUACGCCGUUCGGAUCUGCACUUCCAG | 0.261
ACCAUGCAGGUGGGCAUCUUUGGGAAGUGGGGCAAGGAGGGGAUAGGGAGGGGGGUAACACUUUGGGAACAGGUGGUCCCAGGUCGUUUC | 0.65
CUCAAGUCCUGUGCUACACAUCGUAUGUACCGAAUCGGGAGGGAGGGUUUGGGAAAGUAUUAUGUUACGCCGUUCGGAUCUGCACUUCCA | 1.31
AGUCCUGUGCUACACAUCGUAUGUACCGAAUCGGGAAAAAGGGAAAAAGGGUUUGGGAAAGUAUUAUGUUACGCCGUUCGGAUCUGCACU | -0.066
UUAUCACCAGGACUGCCAUGUUCCCAGGGCUCCAGCCCCUGGAGAGGGAGAGGGCACAUCCUGGGUAUGCCGCCAGUGUGUCUUUGCGAU | -0.87
CCUGUGCUACACAUCGUAUGUACCGAAUCGGGUUUUUUUGGGUUUUUGGGAAAAAAAGGGAAAGUAUUAUGUUACGCCGUUCGGAUCUGC | -0.741
CUGUGCUACACAUCGUAUGUACCGAAUCGGCCCCCCCGGGCCCCCCCGGGGCCCCCCCGGGAAAGUAUUAUGUUACGCCGUUCGGAUCUG | -1.06

Series 5 — method: protein binding microarray; form: double-stranded DNA, one strand shown; matrix: in vitro; tested at: not given; reference: not given; reading: higher = stronger binding
Target: Histone acetyltransferase KAT6A, winged helix 1, GST fusion (KAT6A, Homo sapiens, UniProt Q92794, residues 1-85)
Setting: 8-mer, flanks averaged, mean of 2 arrays, mostly near background
Construct (chain): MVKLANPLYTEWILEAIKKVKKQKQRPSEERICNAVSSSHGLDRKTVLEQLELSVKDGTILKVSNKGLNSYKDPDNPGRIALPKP
Sequence | E-score
CCCCTCCC | 0.0465
AGTATATC | -0.132
ACCCCCCA | -0.266
GCGGCGAC | 0.437
CTATAAAA | -0.167
CTATGGCC | 0.039
CTTCCTAA | -0.253
TACAACCA | -0.123
CACTTACC | 0.0631
AATATCGG | 0.172
CCCACGCA | 0.0439
CGACTATC | -0.0195
ATAGCTCC | -0.128
ATGTACGG | 0.204
AGACCTCA | -0.136
ATAAGGGC | -0.158
ATTGAGCA | -0.237
CTATGATC | -0.0276
AAGCGTAG | -0.00522
CTGTTTTC | -0.0526
AACATCGA | -0.113
GGCCCGAC | 0.253
CTTCCGCA | 0.101
CGTGACCA | -0.0023
CAGTGTGG | -0.124

Series 6 — method: RNA Bind-n-Seq; form: RNA; matrix: in vitro; tested at: 365 nM; reference: no-protein control; reading: higher = stronger binding
Target: RNA binding protein fox-1 homolog 2, RRM domain, GST-SBP tag (RBFOX2, Homo sapiens, UniProt O43251-10, residues 100-194)
Setting: natural RNA segment, single round, ends assumed
Constant ends, left off below: GGGAGUUCUACAGUCCGACGAUC … UGGAAUUCUCGGGUGCCAA
Construct (chain): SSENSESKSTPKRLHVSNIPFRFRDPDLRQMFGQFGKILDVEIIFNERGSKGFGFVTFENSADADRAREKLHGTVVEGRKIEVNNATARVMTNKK
Sequence | RBNS enrichment (R)
UGAAGGGGUUUUCUUGAUAAUUUUCCUUUAAUAUGAAAUUUUUUUUCAUGCUUUAUCAAUAGCCCAGGAUAUAUUUUAUUUUUAGAAUUUUGUGAAACAGACUUGUAUAU | 0.942
AGGAUGAAGGCUAACGGCUGUGCUUGCCCUGGUUACUGGAUGGGAUUCUCUGCUGGGCGGGUGGGGAAGCAGCUCUACCCUUCCCUACCCCUCCCUGCCCCAACUCUGAC | 0.968
UUGUUUUAUCAUCAGCCAAGUUAAACCCCUGCUUCCUGCCUUUUACACCUAUUGCGUGAACAGAAUAUGCAUUAUUAAAGCAAAAAUAAAUAAAAAAUAAAAUGCAAGUG | 0.764
CAGCUGCUCCUAAGGACACAGGGCUGGGUUGGUAAAGAGAAGGCUAUGGUUGACUUCUUGCUUGUGCUUCCCACUCUCCCCGACUUCAUUCACUCAAACUUCUUUAAAUG | 0.529
GGUGAGAGUAAUGAGGCUUGGGGCUGGAGAGGACAAGAUGGGUAAACCCUCACAUCAGAGUGACAUCCAGGAGGAAUAAGCUCCCAGGGCCUGUCUCAAGCUCUUCCUUA | 0.495
AAUGGAGCCUGAGCUGCUUAGAAGCCUUGGUUCAGGAUUCCAGCUGGGUUCAUGACUGUGAACACAAUGUGCCCUGUGCUGGGCCACAGCUUCCUUGUUUAUGAAGUGAG | 0.29
GGCAACAUAUUUAAGAUUUCCAGCUCCUUGUGUAUAUGAAUGCAUUUGUAAGCAUCCCCCAAAUUAUUCUGAAGGUUUUUUGAUGAUGGAGGUAUGAUAGGUUUAUCACA | 2.03
CUGAGGUCAUAUUUCAGACACCCACCUGACCCUGCCACUCACAGCCGUCGUUUGUUUUCCAUGGAUGCAGAAGUCCAGGUUUCACCAUCUAUUUUCUGUUUUACUCGAUU | 0.488
AUUAAAAGAAUCUUGUAACUUUAUUCUUUUUUUUCUCCUGCUGAAACAAAUUAAACCAAUCAUAUGGACAUUUGGAUUGUCUGUGUUGGCCGCUCACCUAGUGCCCCAGG | 0.559
CUCCCUGGCCAACACAUACUUGCAGUGUCAGAUCUGGUACAUGAAUGGCCAUUCUACCCAGAUAGGUUUUAGCUUAUAUAUAGGACAUCAGAUUCCCUGGAAUCCUUGGU | 0.329
CCCAAAUAACUCAUGAGUUCCAAGUUGAAACAUGGUUGUGCAAGUUGGACAUUACAAUGUAAAACACAUUUUCUUCAAACACGUUUUCCCUUUUGUUUCAAAAAAUGUAA | 0.462
UCCAGAGUACACAGUGAAACACUUGUCUUUUUUAAAAAACAAAAGCUAGCUACGAAUUUUUAAAGAAAUACUGUUUAAGUUAGAGAUGGUUUAAAGAAAAAUAGUUCACC | 0.7

A few entries again (series 5):
Sequence | E-score
CCCCTCCC | 0.0465
AGTATATC | -0.132
ACCCCCCA | -0.266
GCGGCGAC | 0.437
CTATAAAA | -0.167
CTATGGCC | 0.039
CTTCCTAA | -0.253
TACAACCA | -0.123
CACTTACC | 0.0631
AATATCGG | 0.172
CCCACGCA | 0.0439
